Measured values from different studies.
A part holds a random share of what one study measured.
Chain of UniProt Q99683 (whole entry, looked up): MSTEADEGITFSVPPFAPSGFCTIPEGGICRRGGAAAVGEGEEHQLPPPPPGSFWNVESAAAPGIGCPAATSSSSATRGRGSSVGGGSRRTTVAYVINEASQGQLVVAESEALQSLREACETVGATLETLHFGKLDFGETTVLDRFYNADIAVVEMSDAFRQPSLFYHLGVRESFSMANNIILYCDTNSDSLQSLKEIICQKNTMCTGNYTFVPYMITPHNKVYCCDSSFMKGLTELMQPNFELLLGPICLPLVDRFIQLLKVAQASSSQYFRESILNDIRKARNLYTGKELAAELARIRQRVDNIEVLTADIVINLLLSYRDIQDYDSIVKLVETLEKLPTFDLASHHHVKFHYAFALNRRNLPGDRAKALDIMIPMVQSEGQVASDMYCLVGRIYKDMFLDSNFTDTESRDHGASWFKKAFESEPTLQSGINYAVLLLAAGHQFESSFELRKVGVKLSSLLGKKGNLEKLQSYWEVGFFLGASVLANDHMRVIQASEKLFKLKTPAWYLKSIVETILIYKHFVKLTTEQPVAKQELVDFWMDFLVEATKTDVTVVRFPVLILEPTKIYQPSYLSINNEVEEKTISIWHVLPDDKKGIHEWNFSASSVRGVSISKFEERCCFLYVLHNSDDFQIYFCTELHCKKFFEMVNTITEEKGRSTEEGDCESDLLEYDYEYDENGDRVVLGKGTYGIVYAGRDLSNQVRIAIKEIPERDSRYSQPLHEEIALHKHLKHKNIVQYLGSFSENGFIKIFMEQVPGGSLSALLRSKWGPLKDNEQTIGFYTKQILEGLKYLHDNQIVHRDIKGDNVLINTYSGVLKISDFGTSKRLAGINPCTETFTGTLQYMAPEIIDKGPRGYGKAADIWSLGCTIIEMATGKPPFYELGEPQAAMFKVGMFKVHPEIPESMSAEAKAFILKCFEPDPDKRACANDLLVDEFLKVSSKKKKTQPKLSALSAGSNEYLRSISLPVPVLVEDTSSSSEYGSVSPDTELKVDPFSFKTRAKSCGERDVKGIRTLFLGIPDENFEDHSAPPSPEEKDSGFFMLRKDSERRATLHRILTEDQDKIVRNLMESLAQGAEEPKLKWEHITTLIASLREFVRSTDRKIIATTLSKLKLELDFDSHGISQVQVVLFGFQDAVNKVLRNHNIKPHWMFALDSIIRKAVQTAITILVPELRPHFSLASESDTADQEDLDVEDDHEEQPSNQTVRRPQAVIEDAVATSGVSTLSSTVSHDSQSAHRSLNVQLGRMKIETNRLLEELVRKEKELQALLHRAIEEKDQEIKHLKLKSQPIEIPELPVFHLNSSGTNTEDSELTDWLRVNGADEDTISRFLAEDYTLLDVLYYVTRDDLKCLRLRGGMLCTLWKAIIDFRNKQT
Chain of UniProt P37173 (whole entry, looked up): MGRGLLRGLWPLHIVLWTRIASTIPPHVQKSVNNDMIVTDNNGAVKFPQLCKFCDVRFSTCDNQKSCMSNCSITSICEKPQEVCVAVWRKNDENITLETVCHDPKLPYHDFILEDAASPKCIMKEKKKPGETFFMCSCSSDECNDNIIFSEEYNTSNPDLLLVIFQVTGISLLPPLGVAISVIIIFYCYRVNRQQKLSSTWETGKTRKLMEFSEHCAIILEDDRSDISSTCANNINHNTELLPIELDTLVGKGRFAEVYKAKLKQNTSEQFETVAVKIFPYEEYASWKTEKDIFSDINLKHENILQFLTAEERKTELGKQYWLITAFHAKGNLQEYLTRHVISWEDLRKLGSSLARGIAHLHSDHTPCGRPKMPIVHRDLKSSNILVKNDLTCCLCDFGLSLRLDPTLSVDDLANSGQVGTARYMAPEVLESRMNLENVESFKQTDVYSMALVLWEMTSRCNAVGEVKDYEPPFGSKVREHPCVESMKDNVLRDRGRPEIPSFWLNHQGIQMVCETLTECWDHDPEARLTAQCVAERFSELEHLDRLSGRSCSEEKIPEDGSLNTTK
Chain of UniProt P36896 (whole entry, looked up): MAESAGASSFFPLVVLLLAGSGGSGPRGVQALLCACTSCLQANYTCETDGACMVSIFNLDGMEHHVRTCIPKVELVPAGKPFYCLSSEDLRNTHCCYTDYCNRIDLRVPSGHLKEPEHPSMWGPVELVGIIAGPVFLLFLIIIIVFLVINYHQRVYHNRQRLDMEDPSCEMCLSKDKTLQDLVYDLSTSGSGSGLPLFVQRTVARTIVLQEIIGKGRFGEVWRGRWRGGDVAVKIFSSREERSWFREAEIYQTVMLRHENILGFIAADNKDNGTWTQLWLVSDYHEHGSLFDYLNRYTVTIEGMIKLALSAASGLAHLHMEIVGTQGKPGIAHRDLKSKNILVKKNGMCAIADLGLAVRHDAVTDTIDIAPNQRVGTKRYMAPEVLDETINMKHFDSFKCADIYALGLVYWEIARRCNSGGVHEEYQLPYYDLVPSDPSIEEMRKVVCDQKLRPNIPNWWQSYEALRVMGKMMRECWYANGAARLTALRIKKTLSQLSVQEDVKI
Chain of UniProt P78368 (whole entry, looked up): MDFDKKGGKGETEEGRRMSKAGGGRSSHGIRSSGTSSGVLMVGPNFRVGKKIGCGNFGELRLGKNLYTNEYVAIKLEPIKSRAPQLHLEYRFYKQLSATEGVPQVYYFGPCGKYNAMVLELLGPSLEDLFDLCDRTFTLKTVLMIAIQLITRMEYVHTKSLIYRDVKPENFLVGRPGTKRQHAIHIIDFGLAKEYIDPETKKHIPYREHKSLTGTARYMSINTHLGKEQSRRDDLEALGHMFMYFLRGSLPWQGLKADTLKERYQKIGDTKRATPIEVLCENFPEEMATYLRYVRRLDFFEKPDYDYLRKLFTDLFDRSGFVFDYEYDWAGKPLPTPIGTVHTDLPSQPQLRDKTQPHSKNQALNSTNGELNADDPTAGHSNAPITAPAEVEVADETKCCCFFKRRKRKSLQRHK
Chain of UniProt Q16659 (whole entry, looked up): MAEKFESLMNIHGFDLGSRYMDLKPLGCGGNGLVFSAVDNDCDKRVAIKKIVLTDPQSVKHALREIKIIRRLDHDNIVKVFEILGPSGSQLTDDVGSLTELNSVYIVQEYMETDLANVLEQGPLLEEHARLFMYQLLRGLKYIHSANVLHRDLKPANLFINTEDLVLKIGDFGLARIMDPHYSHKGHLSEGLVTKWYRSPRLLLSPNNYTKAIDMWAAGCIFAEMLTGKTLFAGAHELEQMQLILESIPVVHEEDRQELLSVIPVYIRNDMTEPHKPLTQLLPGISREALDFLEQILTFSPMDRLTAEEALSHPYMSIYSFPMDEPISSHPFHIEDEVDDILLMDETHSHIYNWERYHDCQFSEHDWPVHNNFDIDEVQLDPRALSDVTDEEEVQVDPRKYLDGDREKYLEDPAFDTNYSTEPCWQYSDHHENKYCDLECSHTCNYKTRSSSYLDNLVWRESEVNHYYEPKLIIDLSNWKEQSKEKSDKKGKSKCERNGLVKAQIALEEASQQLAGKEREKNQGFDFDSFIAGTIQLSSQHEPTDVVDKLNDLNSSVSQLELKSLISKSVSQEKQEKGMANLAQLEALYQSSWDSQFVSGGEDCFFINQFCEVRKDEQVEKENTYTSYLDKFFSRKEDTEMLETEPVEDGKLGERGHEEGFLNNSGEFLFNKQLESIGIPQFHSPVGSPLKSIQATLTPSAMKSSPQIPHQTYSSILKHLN
Chain of UniProt Q99558 (whole entry, looked up): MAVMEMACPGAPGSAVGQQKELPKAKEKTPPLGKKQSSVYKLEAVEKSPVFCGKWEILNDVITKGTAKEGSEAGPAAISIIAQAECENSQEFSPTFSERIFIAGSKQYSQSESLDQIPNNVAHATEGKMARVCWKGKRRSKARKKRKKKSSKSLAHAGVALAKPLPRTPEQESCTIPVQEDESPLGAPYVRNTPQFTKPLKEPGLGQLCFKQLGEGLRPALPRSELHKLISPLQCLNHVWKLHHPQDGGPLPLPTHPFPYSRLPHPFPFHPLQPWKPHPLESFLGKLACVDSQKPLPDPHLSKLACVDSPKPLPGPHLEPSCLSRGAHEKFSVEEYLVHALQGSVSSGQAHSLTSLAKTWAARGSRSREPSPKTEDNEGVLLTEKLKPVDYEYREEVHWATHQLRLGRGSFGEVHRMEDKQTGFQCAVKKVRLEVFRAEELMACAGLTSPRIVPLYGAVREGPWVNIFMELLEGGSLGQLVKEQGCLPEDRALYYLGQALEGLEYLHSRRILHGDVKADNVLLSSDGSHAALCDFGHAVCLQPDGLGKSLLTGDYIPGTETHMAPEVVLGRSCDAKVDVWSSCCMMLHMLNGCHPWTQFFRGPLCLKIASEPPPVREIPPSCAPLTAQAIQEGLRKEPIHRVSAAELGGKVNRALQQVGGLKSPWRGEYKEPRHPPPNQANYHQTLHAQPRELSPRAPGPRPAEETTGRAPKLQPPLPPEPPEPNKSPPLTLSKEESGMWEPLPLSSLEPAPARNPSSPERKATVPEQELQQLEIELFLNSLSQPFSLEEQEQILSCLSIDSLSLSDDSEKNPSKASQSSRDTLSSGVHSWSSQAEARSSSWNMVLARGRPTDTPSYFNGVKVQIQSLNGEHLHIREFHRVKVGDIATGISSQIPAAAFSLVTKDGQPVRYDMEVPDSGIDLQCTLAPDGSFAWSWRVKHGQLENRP
Chain of UniProt P49137 (whole entry, looked up): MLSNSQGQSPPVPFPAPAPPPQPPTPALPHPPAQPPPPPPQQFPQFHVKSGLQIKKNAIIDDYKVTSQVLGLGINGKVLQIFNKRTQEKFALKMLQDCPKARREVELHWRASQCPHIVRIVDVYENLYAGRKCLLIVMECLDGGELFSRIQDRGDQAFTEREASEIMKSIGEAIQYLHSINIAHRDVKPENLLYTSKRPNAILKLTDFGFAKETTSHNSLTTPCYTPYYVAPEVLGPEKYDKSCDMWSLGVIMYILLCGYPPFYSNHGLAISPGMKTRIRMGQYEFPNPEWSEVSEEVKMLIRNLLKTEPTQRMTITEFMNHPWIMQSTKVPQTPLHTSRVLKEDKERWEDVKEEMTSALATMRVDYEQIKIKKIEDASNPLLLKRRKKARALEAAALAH

Study 1 — read-out: enzyme activity; mode: inhibitor; tested at: 0.5 µM; baseline: control; quantity: remaining activity
SMILES: O=Nc1c(-c2c(O)[nH]c3ccccc23)[nH]c2ccccc12
RPS6KA2 (Homo sapiens, UniProt Q15349): 42.6%
MAP2K2 (Homo sapiens, UniProt P36507): 100%
MAPKAPK2 (Homo sapiens, UniProt P49137): 105%
CSNK1G2 (Homo sapiens, UniProt P78368): 89.4%
FGFR3 (Homo sapiens, UniProt P22607): 70.4%
LCK (Homo sapiens, UniProt P06239): 77.1%
MERTK (Homo sapiens, UniProt Q12866): 82.2%
ARAF (Homo sapiens, UniProt P10398): 100%
ACVR1B (Homo sapiens, UniProt P36896): 102%
TBK1 (Homo sapiens, UniProt Q9UHD2): 53.6%
MAP3K14 (Homo sapiens, UniProt Q99558): 88.7%
FGFR1 (Homo sapiens, UniProt P11362): 52.2%
MAP3K5 (Homo sapiens, UniProt Q99683): 84.3%
ULK2 (Homo sapiens, UniProt Q8IYT8): 103%

Study 2 — cell line: HaCaT; tested at: 100 µM; time: 36 h; quantity: viability
N[C@H](Cc1ccccc1)C(=O)O: 96.6%
O=C[C@H](O)[C@@H](O)[C@H](O)[C@H](O)CO: 75.3%
N[C@@H](Cc1c[nH]c2ccccc12)C(=O)O: 91.3%

Study 3 — method: Phase 2a trial; species: idiopathic pulmonary fibrosis patients; quantity: patients with adverse events
Structure (SMILES): CC(C)n1cnc(-c2ccc(F)cc2)c1-c1ncc(C(=O)Nc2ccc(N3CCN(C)CC3)cc2)[nH]1
measured: oral herpes; oral, 60 mg once daily, grade 4 maximum intensity: 0%
measured: reticulocyte count increased; 30 mg once daily, grade 3 maximum intensity: 0%
measured: vision blurred; 30 mg once daily, grade 5 maximum intensity: 0%

Study 4 — read-out: cell-free assay; method: competition with immobilised ligand; tested at: 1 µM; quantity: remaining binding
Compound: CS(=O)(=O)c1cc(C2(NC(=O)c3cncc4c3cnn4-c3ccc(F)cc3)CC2)ccn1
MAPK6 (Homo sapiens, UniProt Q16659): 100%
TGFBR2 (Homo sapiens, UniProt P37173): 100%
DYRK1B (Homo sapiens, UniProt Q9Y463): 74%
EPHA8 (Homo sapiens, UniProt P29322): 99%

Study 5 — species: human; matrix: microsomes or S9; tested at: 2 µM; time: 0.5 h; quantity: remaining compound
CN1C[C@H](NC(=O)Nc2cccc3ccccc23)C[C@H]1CO: > 99%
Fc1ccc2nc(-c3ccc4c(c3)OCO4)c3nn[nH]c3c2c1: 25.2%
Cc1cc(C)c2c(c1)C(NC(=O)c1ncoc1C1CCCO1)CCO2 (stereo not shown): 49.6%
CC(=O)N(CC(=O)N1CCCN(c2ccc(-c3ccccc3)nn2)CC1)C(C)c1ccccc1 (stereo not shown): 3.75%

Excerpt of the above (study 2):
N[C@@H](Cc1c[nH]c2ccccc12)C(=O)O: 91.3%
